Measured values collected from several papers.
TMPRSS2: Transmembrane protease serine 2 (TMPRSS2, Homo sapiens, UniProt O15393)
Sequence of UniProt O15393 (whole entry, looked up): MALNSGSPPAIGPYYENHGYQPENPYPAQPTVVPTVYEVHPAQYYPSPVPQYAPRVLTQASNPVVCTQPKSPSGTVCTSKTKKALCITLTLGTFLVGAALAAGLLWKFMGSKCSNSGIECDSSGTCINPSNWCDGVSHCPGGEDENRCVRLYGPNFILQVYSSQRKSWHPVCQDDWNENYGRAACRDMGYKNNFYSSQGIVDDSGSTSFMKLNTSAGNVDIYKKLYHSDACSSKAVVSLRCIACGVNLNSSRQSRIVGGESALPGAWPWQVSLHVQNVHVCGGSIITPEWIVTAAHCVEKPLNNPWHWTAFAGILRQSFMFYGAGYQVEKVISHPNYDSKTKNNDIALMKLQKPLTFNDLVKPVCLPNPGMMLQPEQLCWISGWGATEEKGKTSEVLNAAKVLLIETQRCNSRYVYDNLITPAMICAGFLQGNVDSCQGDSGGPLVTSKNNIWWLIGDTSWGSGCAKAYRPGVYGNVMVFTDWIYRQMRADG
CTSL: Procathepsin L (CTSL, Homo sapiens, UniProt P07711)
Sequence of UniProt P07711 (whole entry, looked up): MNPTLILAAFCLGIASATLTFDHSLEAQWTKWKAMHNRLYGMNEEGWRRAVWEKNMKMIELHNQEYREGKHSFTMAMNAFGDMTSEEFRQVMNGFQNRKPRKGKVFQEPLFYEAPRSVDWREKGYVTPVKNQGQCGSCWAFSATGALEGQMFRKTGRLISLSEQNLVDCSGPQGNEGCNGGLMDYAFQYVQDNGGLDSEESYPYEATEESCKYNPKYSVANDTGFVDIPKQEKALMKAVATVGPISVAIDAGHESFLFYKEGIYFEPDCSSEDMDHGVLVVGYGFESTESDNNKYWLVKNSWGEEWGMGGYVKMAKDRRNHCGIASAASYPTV
ADRA2B: Alpha-2B adrenergic receptor (ADRA2B, Homo sapiens, UniProt P18089)
Sequence of UniProt P18089 (whole entry, looked up): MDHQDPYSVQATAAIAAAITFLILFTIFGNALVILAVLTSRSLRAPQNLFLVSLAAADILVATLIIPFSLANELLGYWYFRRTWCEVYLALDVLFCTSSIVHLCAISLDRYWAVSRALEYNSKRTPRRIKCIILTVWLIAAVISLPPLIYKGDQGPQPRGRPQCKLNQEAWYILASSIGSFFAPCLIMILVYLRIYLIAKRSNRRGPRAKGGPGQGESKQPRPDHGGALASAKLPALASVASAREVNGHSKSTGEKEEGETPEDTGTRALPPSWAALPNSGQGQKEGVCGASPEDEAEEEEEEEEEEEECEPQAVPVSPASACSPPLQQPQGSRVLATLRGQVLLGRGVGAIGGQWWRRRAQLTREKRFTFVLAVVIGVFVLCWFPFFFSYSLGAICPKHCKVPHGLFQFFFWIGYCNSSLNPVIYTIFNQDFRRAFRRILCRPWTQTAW
PFF0160c E182D: Dihydroorotate dehydrogenase (quinone), mitochondrial (PFF0160c, Plasmodium falciparum, UniProt Q08210, E182D)
Sequence of UniProt P22303 (whole entry, looked up): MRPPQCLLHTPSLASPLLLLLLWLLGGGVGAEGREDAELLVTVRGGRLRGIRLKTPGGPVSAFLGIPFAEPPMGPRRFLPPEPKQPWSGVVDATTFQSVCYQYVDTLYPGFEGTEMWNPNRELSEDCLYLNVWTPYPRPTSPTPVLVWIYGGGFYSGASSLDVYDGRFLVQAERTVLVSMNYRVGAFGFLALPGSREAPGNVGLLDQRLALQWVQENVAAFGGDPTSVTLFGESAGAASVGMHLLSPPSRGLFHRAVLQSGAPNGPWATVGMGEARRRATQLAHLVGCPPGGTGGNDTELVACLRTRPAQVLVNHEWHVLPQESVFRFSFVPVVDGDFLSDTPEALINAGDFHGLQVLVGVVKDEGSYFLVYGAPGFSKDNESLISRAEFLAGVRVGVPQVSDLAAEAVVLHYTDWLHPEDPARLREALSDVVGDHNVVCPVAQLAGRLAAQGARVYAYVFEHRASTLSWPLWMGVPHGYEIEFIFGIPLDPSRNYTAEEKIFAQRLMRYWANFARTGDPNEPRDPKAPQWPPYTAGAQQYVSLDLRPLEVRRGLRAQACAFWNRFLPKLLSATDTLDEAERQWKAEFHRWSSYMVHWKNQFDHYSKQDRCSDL
Sequence of UniProt Q8IZX4 (whole entry, unmodified, looked up): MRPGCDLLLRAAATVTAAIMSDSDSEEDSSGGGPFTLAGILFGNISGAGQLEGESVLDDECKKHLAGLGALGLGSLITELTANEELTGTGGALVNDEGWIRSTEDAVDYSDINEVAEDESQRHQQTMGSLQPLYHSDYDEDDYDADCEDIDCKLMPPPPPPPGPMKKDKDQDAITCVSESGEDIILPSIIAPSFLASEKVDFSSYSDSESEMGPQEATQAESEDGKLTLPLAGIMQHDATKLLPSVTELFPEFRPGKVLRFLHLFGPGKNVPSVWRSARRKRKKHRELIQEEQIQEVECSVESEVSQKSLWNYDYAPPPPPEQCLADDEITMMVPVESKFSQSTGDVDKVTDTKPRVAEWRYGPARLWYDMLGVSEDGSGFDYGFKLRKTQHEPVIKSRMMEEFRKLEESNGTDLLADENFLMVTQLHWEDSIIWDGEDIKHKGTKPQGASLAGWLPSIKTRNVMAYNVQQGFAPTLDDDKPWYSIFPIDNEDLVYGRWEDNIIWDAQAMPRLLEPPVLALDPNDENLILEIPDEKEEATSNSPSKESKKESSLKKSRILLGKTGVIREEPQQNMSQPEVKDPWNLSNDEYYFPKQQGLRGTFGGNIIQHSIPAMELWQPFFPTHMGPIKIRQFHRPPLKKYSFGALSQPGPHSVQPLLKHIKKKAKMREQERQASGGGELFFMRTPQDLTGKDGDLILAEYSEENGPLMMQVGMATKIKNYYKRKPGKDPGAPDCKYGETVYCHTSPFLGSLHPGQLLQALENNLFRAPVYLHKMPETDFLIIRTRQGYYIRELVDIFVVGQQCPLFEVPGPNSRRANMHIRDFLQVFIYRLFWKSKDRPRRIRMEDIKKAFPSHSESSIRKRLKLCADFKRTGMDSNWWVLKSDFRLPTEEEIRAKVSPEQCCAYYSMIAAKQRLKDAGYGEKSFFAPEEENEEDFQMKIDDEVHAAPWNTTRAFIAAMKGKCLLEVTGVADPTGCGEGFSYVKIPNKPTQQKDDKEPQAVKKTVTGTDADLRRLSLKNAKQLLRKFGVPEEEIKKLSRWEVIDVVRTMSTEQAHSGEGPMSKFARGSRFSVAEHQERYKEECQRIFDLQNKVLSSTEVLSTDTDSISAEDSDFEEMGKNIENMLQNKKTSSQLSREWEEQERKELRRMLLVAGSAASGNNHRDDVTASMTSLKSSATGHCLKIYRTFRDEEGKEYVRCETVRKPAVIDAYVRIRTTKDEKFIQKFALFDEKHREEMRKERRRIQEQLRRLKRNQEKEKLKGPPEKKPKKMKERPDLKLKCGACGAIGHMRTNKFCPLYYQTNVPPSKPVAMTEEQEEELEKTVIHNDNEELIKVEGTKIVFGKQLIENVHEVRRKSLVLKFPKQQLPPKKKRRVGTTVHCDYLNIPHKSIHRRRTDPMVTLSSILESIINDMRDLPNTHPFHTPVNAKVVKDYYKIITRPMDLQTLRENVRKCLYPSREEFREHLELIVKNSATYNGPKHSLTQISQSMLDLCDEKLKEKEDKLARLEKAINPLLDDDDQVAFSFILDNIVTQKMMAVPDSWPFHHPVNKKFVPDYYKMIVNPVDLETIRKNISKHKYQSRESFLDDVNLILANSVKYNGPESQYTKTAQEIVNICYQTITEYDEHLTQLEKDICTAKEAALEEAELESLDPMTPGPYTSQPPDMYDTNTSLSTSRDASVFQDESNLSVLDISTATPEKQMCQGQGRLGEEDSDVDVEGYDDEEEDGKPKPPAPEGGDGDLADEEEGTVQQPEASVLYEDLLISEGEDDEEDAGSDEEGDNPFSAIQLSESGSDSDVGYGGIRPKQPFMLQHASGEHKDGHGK
Sequence of UniProt P21554 (whole entry, looked up): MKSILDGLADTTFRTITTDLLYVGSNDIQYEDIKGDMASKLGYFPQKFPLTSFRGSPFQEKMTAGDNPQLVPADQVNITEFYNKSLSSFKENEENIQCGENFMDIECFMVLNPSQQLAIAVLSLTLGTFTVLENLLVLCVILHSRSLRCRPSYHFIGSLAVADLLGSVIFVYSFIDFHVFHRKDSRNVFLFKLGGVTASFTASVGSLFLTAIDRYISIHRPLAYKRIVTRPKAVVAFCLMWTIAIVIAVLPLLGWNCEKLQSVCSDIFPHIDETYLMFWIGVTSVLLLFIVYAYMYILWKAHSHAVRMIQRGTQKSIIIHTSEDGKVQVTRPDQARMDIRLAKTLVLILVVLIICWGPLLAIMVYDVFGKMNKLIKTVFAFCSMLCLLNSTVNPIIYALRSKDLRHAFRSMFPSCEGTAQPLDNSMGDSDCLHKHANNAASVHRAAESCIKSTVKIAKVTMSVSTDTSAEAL
Sequence of UniProt Q13976 (whole entry, looked up): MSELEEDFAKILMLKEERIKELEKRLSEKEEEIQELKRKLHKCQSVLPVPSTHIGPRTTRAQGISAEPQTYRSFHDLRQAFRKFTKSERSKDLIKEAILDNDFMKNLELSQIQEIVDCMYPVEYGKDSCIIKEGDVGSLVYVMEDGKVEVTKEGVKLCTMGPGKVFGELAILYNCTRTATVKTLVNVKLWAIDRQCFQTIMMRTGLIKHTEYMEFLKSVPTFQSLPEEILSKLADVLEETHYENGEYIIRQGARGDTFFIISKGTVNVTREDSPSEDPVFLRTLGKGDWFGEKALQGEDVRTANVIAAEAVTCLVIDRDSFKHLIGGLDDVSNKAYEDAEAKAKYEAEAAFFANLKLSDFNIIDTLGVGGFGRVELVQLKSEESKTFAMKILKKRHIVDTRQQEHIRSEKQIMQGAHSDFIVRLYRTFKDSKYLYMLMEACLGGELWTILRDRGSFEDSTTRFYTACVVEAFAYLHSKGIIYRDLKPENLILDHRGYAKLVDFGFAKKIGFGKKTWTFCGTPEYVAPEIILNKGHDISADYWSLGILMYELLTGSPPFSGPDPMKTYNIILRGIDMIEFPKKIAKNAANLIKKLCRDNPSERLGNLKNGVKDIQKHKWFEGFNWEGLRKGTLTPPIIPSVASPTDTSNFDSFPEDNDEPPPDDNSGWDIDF

SMILES = N=C(N)NCCCCC(=O)N[C@@H](CCC(N)=O)C(=O)N[C@@H](Cc1ccccc1)C(=O)N[C@@H](CCNC(=N)N)CC(=O)c1nc2ccccc2s1; tested on = TMPRSS2; assay = enzyme activity, inhibitor; conditions = 1 nM; endpoint = activity vs control; result = 96%
SMILES = CCCC[C@H]1CNCCN1C[C@@H]1CCCN1C[C@@H](Cc1ccc2ccccc2c1)N1CCN(CCC23CC4CC(CC(C4)C2)C3)[C@H]([C@@H](C)O)C1; tested on = Kappa-type opioid receptor (OPRK1, Cavia porcellus, UniProt P41144); assay = ligand displacement, radioligand; conditions = 0.5 µM, pH 7.5; endpoint = remaining binding; result = 97.3%
SMILES = CCCCCCCc1cc(=O)c2ccccc2[nH]1; tested on = CTSL; assay = enzyme activity, inhibitor; conditions = 100 µM; endpoint = remaining activity; result = 70.2%
SMILES = c1cncc([C@@H]2CCCN2)c1; tested on = ADRA2B; assay = ligand displacement; conditions = 50 µM; endpoint = inhibition; result = -17.9%
SMILES = CC(C)[C@@H](NC(=O)[C@H](CCc1ccccc1)NC(=O)CCc1ccccc1)C(=O)N[C@@H](CCCNC(=N)N)C(=O)c1nc2ccccc2s1; tested on = TMPRSS2; assay = enzyme activity, inhibitor; conditions = 1 nM; endpoint = activity vs control; result = 80%
SMILES = CCN(CC)CCCC[C@H](NC(=O)[C@H](CC(C)C)NC(=O)[C@H](C)NC(=O)[C@H](Cc1ccccc1)NC(=O)c1ccc(C(C)(C)C)cc1)C(=O)N[C@@H](CO)C(=O)OC; tested on = Transcription initiation factor TFIID subunit 1-like, BD1 (TAF1L, Homo sapiens, UniProt Q8IZX4); assay = thermal stability, DSF; conditions = 25 µM; endpoint = ΔTm; result = 0.45 °C
SMILES = COCc1ccccc1C(=O)NCCOc1cc(C)cc(C)c1; tested on = PFF0160c E182D; assay = enzyme activity, inhibitor, absorbance; endpoint = IC50; result = 97.7 nM
SMILES = N.N.[Cl][Pt][Cl]; tested on = HuT78; assay = cell growth or viability, ATP luminescence; conditions = 10 µM, 72 h; endpoint = inhibition; result = 93%
SMILES = Cc1ccc(C(=O)Nc2ccc(F)c(F)c2F)cc1S(=O)(=O)N1CCCCC1; tested on = PFF0160c E182D; assay = enzyme activity, inhibitor, absorbance; endpoint = IC50; result = > 10000 nM
SMILES = CC(C)CC(=O)OC[C@H]1O[C@@](C#N)(c2ccc3c(N)ncnn23)[C@H](O)[C@@H]1O; tested on = ADRA2B; assay = cell-free assay; conditions = 20 µM; endpoint = inhibition; result = 2%
SMILES = CC(=O)N[C@@H](CCC(N)=O)C(=O)N[C@@H](Cc1ccncc1)C(=O)N[C@@H](CCCNC(=N)N)C(=O)c1nc2ccccc2s1; tested on = TMPRSS2; assay = enzyme activity, inhibitor; conditions = 1 nM; endpoint = activity vs control; result = 96%
SMILES = C#Cc1n[nH]c2c(-c3cn([C@@H](C)c4ccccn4)c(=O)[nH]c3=O)cc(F)cc12; tested on = Cyclin-dependent kinase 2, with cyclin A (CDK2, Homo sapiens, UniProt P24941); assay = enzyme activity, inhibitor; conditions = 0.1 µM; endpoint = inhibition; result = 3.6%
SMILES = CC(C)CCC(=O)N[C@@H](Cc1ccc(O)cc1)C(=O)N[C@H](C(=O)N[C@H](CCCNC(=N)N)C(=O)c1nc2ccccc2s1)C(C)C; tested on = TMPRSS2; assay = enzyme activity, inhibitor; conditions = 1 nM; endpoint = activity vs control; result = 52%
SMILES = COC(=O)c1cc(-c2cccc(NC(=O)Nc3c(C)cccc3C)c2)on1; tested on = Pseudomonas aeruginosa; assay = microbial growth, broth dilution; test system = ATCC27853; endpoint = MIC; result = > 64 µg/mL
SMILES = COc1ccc(/C=C/c2cc(O)cc(O)c2)cc1; tested on = CTSL; assay = enzyme activity, inhibitor; conditions = 100 µM; endpoint = remaining activity; result = 18.6%
SMILES = N=C(N)NCCC[C@H](NS(=O)(=O)c1ccccc1)C(=O)N[C@@H](CCC(N)=O)C(=O)N[C@@H](Cc1ccccc1)C(=O)N[C@H](CCCNC(=N)N)C(=O)c1nccs1; tested on = TMPRSS2; assay = enzyme activity, inhibitor; conditions = 1 nM; endpoint = activity vs control; result = 66%
SMILES = Nc1ncc(-c2nc(N3CCOCC3)nc(N3CCOCC3)n2)c(C(F)F)n1; tested on = Serine/threonine-protein kinase 35 (STK35, Homo sapiens, UniProt Q8TDR2); assay = binding, competition with immobilised ligand; conditions = 10 µM; endpoint = remaining binding; result = 55%
SMILES = Cc1nn(C)cc1-c1nc2c(N3CCN(Cc4ccc(Cl)cc4)CC3)c(Cl)cnc2[nH]1; tested on = Tyrosine-protein kinase ABL1, phosphorylated (ABL1, Homo sapiens, UniProt P00519, F317L); assay = binding, competition with immobilised ligand; conditions = 1 µM; endpoint = remaining binding; result = 89%
SMILES = O=C(N=Nc1c(O)n(CCCCCF)c2ccccc12)c1ccccc1; tested on = Cannabinoid receptor 1 (CNR1, Homo sapiens, UniProt P21554); assay = β-arrestin recruitment, agonist; test system = HEK293; endpoint = Emax; result = 97.7%
SMILES = COc1cnc(OC)n2nc(NS(=O)(=O)c3c(OCC(F)F)cccc3C(F)(F)F)nc12; tested on = L02; assay = cell growth or viability, CCK-8; conditions = 50 µM, 72 h; endpoint = inhibition; result = 0.95%
SMILES = CCc1ccc(N2C(=O)/C(=C3/C(=O)N(C)c4ccc(Cl)cc43)NC2=S)cc1; tested on = Acetylcholinesterase (ACHE, Homo sapiens, UniProt P22303); assay = enzyme activity, inhibitor, Ellman; conditions = 50 nM; endpoint = inhibition; result = 18%
SMILES = CN1CCC[C@H]1c1cccnc1; tested on = 5-hydroxytryptamine receptor 6 (HTR6, Homo sapiens, UniProt P50406); assay = ligand displacement; conditions = 50 µM; endpoint = inhibition; result = 10.6%
SMILES = COc1ncccc1-c1cnn2ccc(N3CCN(C(=O)OC(C)C)CC3)nc12; tested on = Serine/threonine-protein kinase ULK1 (ULK1, Homo sapiens, UniProt O75385); assay = binding, competition with immobilised ligand; conditions = 1 µM; endpoint = remaining binding; result = 94%
SMILES = COC(=O)c1cc(-c2cccc(NC(=S)Nc3ccc(F)cc3F)c2)on1; tested on = Pseudomonas aeruginosa; assay = microbial growth, broth dilution; test system = ATCC27853; endpoint = MIC; result = > 64 µg/mL
SMILES = N=C(N)NCCC[C@H](NC(=O)[C@@H](N)Cc1c[nH]c2ccccc12)C(=O)N[C@@H](CCC(=O)O)C(=O)N[C@@H](CCCNC(=N)N)C(=O)c1nc2ccccc2s1; tested on = TMPRSS2; assay = enzyme activity, inhibitor; conditions = 1 nM; endpoint = activity vs control; result = 100%
SMILES = [2H]c1c([2H])c([C@]2([2H])CCCN2C(=O)C(C)(C)Oc2ccc3cn[nH]c3c2)c([2H])c([2H])c1C([2H])([2H])[2H]; tested on = cGMP-dependent protein kinase 1 (PRKG1, Homo sapiens, UniProt Q13976); assay = binding, competition with immobilised ligand; conditions = 1 µM; endpoint = remaining binding; result = 67%
SMILES = C[C@H](NC(=O)[C@H](CC(N)=O)NC(=O)[C@@H](N)CCCCN)C(=O)N[C@H](CCCNC(=N)N)C(=O)c1nc2ccccc2s1; tested on = TMPRSS2; assay = enzyme activity, inhibitor; conditions = 1 nM; endpoint = activity vs control; result = 103%
SMILES = O=C(CCCOc1ccc(Cl)cc1)NC1CCOC1=O (stereo not shown); tested on = qscR (Pseudomonas aeruginosa, UniProt G3XD77); assay = reporter gene, agonist; endpoint = Emax; result = 86 to 88%
